# Experimental data from different studies.
# Parts stem from different laboratories: compare values within a part only.

# Study 1 — method: RNA Bind-n-Seq; form: RNA; medium: in vitro; tested at: 365 nM; reference: no-protein control; reading: higher = stronger binding
# Target: RNA binding protein fox-1 homolog 2, RRM domain, GST-SBP tag (RBFOX2, Homo sapiens, UniProt O43251-10, residues 100-194)
# Notes: natural RNA segment, single round, ends assumed
# Shared flanks, not repeated: GGGAGUUCUACAGUCCGACGAUC … UGGAAUUCUCGGGUGCCAA
# Target sequence (chain): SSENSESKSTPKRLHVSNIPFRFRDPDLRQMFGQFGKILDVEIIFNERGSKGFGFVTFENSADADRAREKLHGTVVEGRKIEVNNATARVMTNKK
Strand,RBNS enrichment (R)
AGAGAAGGUGUCUUUGGAGUUCACACAGCACACACUGUGCACAGAAGGCCUCCCCAUCUGGGAAAUAGAACUGGAUAUUUUGCCUCAUUCACUUGUACUGUAAUAGUGUA,0.727
AGGGCUGGGCAGCAGGGAGCCUGGGACUGAACAAUAAACCCAUGAUCUCCUGCCUCACACACCUGUUUGUGACUUUCCCAGCAAGUAGCUCUGUUACCCUGAGAACACCA,0.657
UAGCUUGACACUGUACUAGCUUCCUGAAUUGUUUGAAAAUACUACUUAAAUAUAAGACAACAGGAAAUUUAUAUAGGAAACAUUUUCAUUCCACUUGUAUAAUUUAAGUC,1.14
ACUCACUUUUUCUCAUCAGAGUCUCUCCUUGCCACAGCCCGGGUCACCAUCGGUUCCCUGGCCUCCCUCCGUGGUCCAGCACUGGCCCCAGUAUGCUGUGUAUGCAGCAG,0.456
AAGAUGAAUCUGUUUGUAUGUAUCCUUGUCAAAUAUAUUCUAUAAUGAAAUAAAAUCUGAAAAGUGGAUUUCUUAUUGACCUAUAUUCAUGAAAGCAUAUAAAUUAAAAU,0.465
CCUGAGGUACUCUGCUGAGUGGGCAAGGCUGAAGAAGAGGCCUGUGGAAUGCAGCAUUACCUGCUGGACAGAGCAGGGCAGGCAGUUCUAUGCCUUGGAGCUCCUGACUG,2.92
CUGCAAAGCCCUGUCAGACAGACUGGGCCCUUCCAAGGUCAAGCCAUGUGUCUGAUGACAUUCCUGGUGAAGCAAAGGAGAGGAGGAUGGGUCAGCCCUCACUGGGUGUC,0.216
AGGCAAAAUCAUGAAAUACACUCGGUUCUGUAAAUUGCUUCUUUAAAUGUCCCGUAGAUUCUUCCUGUAGGAAAACGUUACAAGUAUUCAAAGACAGCUAGCUGUCACUG,0.381
UCAAUUAAGCGUGAUUCUAUCUUAGAAGAAAUAAACUCAGUAUUAAUUCAUGUCUAAAUCACUGGGGUUGAGACUCCUUCAGCCUCCCUGGUUGAUUAGAGAUUCUGAGA,0.409
UUGCCCACACCUCCUCCCAUUUGCUGGGGGAGCUUUGGCCAAUUCACUCCUUUCUAGGUCUUAGUUUUCCCAUGUACACAGGGUCCUCUAGUUGUGAAAAUCACUCAAGA,0.277
UGUCUCUAGGUCGCUGAGAGAGGUGCUUUUCUUCAUAAAACCUUUGGGGUUUGGAUUUCCCCAGGAAGAUGGAGAAUGGAAUACUCACUCUUGGGUCUAAUCUUUCCCCU,0.353
GGGAGAUCUGUCAGCUCAUUCUUGCCUUACUCCAAUGAUGGCCCAGGUGGAAAAGUAGCAGCUGUAUCGGGCUUCCUCAUCCUGCCUGUUCCCCCACACCUGCCAGGAUA,0.344

# Study 2 — method: protein-binding microarray; form: double-stranded DNA, one strand shown; medium: in vitro; tested at: 940 nM top; notes: 60-bp whole probe; added: salmon DNA 0.4 mg/ml; reference: random background probes; reading: higher = stronger binding; shared flanks, not repeated: GCCTAGCAC … GTCTTGATTCGCTTGACGCTGCTG
# Target: Interferon regulatory factor 5, full length, phosphomimetic (IRF5, Homo sapiens, UniProt Q13568-2, residues 1-514, S451D/S453D/S456D/S462D)
Strand,fitted relative affinity [z-score]
TTAGGTATCGGGATTGGGTTAGTGCTA,4.68
GACGGACTGCTTCGCCTGACGTGCTAG,-0.361
TTAGATTTCGGGACTAGATTAGTGCTA,0.512
TCATGTTTTTCATTATTACTGTGCTAG,1.32
TTAGGTATCTTACTGCTTTAGTGCTAG,0.372
CTTTTTTTCTTTTATTAGTGGTGCTAG,2.28
TTAGGTGTCGGACTGGGTTAGTGCTAG,-0.0818
TAAGATCTCAGTCTCGATTAGTGCTAG,3.28
GACGGACTGGCTATCGGGACGTGCTAG,-0.679
GACGGTTTCGGACTGGTGACGTGCTAG,5.61
TTAGGTTTCCTATTCCTTTAGTGCTAG,1.53
GACGGTTTCGGGTTTCGGGAAGTGCTA,9.75
TCACTTCTCAATTAAAAACTGTGCTAG,1.59
GAAGGTATCGACACTGGGGACGTGCTA,3.17
TTAGGTTTCGGTATCGGTGAGTGCTAG,15.4
TCAATTTCCATTTTCTAACTGTGCTAG,1.4
TCAGCATTCCCTTTCTCACTGTGCTAG,1.31
GACGGTTTCGACACGGGGGACGTGCTA,8.97
TTAGATATCGTGTATCGATTAGTGCTA,0.643

# Study 3 — method: competition protein-binding microarray; form: double-stranded DNA, one strand shown; medium: in vitro; tested at: 2 µM; added: Pho4 competitor, 0.05 µM; reading: higher = stronger binding; shared flanks, not repeated: … GTCTTGATTCGCTTGACGCTGCTG
# Target: Centromere-binding protein 1, full length, His-tagged (CBF1, Saccharomyces cerevisiae, UniProt P17106, residues 1-351)
# UniProt P17106, sequence (whole entry, looked up): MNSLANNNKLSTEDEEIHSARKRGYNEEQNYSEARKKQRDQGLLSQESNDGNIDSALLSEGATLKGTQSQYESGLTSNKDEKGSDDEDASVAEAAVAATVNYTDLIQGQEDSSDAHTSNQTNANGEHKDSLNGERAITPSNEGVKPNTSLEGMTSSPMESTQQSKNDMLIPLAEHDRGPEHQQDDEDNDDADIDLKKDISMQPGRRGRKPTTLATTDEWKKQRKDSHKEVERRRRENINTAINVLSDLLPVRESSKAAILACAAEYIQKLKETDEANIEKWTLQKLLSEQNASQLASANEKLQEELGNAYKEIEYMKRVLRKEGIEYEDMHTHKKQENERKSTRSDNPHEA
# Notes: whole 60-bp probe, lowest competitor level
Strand,fluorescence intensity [a.u.]
TCTCGATCTTCCCATCACGCATAGGGTTTTGGGCTT,85.9
GTCTTGTCTCATTGGCCTGTGGGTGTCCCCACTTCA,67.9
TGCGCAACAACTTGTCACAATACTTTATGTCTAGAA,86.1
TGCGTTTTGGTCTACGATGTGACAGTTGCCAGTTCC,80.1
TCTATCCTATTTTAAAACGTGAATATTCCAAGATGA,155
GTCTTGTCTCATTGAGGTGTGGGTGTCCCCACTTCA,80.6
CGTCCTAGCGATTGACAAGTGGGTGCCATGAGGAAG,74.7
CTCTGAGCACTCCATCACCTGAGTTAGGTAATACAT,99.4
AAACCAAGGGAAGAAAACGTGAATACGGAGAAACTT,130
CGTTATGTCCCTAACGACGTGCAATAACTTGCGGAA,86.7
GCCAGCCACATTCACCACGGGTGCCGGTACTTCCAA,57.8
CGGGGTTAAGTTTGTACGGTGGGTGGCTTGCAGCAG,52.8
ATTAGGGGACCTACACGCCTGAAAGTTTTTTAGATA,65.5
ACAAGGCTAAGGGCGCACATGTGTGGGACCCGGAGG,98.5
ACTCTACGGATGAGTCAGGTGATGGGTCTTATCAAG,816
TATCTAATCATTTTGCACGTCAAGATTCTCCTTAAC,77.6
CTTAATTGCAAGATTCAGCTGACTGCATATGGGCAG,151
CGGGGTTAAGTTTGCGATGTGGGTGGCTTGCAGCAG,59.8
TGATAACTTCCGAGTCACGTGTGAAGGAATTCTTAA,11500
CTTTCCCGATCTTGTCTAGTGGGTGTAGCACATTTG,68.8
TTGAACTTGTACTTGCACATGTATCTTATTGTTTCG,159
CTTGACTATCCAGATCGTGTGAGAGGGCAACTGTGT,71.8
GTCTTGTCTCATTGCGACGTGGGTGTCCCCACTTCA,83.2
TGAAGAAGGGGTAGACTCGGAAGCGTTCCAGCGTCT,61
GCATTTTTCGGGGCGCCCGTGCAAAAACTAACTCCG,80.3

# Study 4 — method: universal PBM; form: double-stranded DNA, one strand shown; medium: in vitro; tested at: not given; reading: higher = stronger binding
# Target: Sal-like protein 4, full length isoform B (SALL4, Homo sapiens, UniProt Q9UJQ4-2, residues 1-616)
# Notes: 8-mer, flanks averaged, mean of replicates
Strand,E-score
ACCCGGGA,-0.292
AAATCGGA,0.00981
CAGTCGCC,-0.198
CGGCGAGA,-0.214
ACCACCTG,-0.236
TCCCTGAA,-0.00342
ATCGGCAT,0.134
CGAAGAAA,0.112
CCTTAAGG,-0.0715
ACTGGTGC,-0.207
AAAATACA,0.316
CCTCTAAA,-0.0628
CATCCCGG,-0.26
ACCGATGA,0.141
ATAGGTGG,0.135
GACGAGAA,0.129
CTATTATC,0.274
AATCGCGC,-0.0312
AGATCTCA,0.0675
AGTTGGTC,-0.0631
GAATGAAC,0.112
ACCGGCAA,-0.358
ATTTAGAG,0.112
ACCGATAA,0.194
ACATGTCT,0.188

# Study 5 — method: RNAcompete; form: RNA; medium: in vitro; tested at: 20 nM; notes: 7-mer, probes averaged, single round; reference: mean of 7-mers; reading: higher = stronger binding
# Target: PABPC1L2, full length, GST fusion (mouse, UniProt A0ABA7IW68)
# Construct (chain): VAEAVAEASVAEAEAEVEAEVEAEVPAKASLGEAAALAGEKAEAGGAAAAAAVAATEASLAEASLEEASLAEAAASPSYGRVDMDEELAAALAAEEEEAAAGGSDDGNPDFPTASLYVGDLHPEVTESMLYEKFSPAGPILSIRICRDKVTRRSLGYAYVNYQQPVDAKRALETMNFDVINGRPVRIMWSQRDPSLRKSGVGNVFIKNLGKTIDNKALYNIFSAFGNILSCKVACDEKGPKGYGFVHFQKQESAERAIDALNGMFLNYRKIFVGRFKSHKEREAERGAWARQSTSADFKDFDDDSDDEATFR
Strand,7-mer Z-score
UCGUUUG,-0.597
UGACAGC,-0.293
GUGUGUG,-0.342
AGAACAC,0.0243
CGGGUAC,0.0768
GGCUAGU,-0.0554
CUGGACU,-0.115
UUAGUAC,-0.171
ACGCCUA,-0.2
UUAGGAU,-0.0138
CUAUUUC,-0.344
GGAGAUU,0.0442
GAACAUG,0.0642
UCUAGCA,-0.226
ACACGUA,-0.0518
UUUAGCC,-0.0591
AGAAUUG,-0.113
GAUAGGC,-0.0591
AGCCAUA,-0.101
UGCGAGG,0.182
AAACGGA,1.13
GCGGAGG,0.234
GAGCCAA,0.0587
GGCCUCG,-0.224
GGAUUAC,0.0714

# Some of these lines once more (study 2):
Strand,fitted relative affinity [z-score]
TTAGGTATCGGGATTGGGTTAGTGCTA,4.68
GACGGACTGCTTCGCCTGACGTGCTAG,-0.361
TTAGATTTCGGGACTAGATTAGTGCTA,0.512
TCATGTTTTTCATTATTACTGTGCTAG,1.32
TTAGGTATCTTACTGCTTTAGTGCTAG,0.372
CTTTTTTTCTTTTATTAGTGGTGCTAG,2.28
TTAGGTGTCGGACTGGGTTAGTGCTAG,-0.0818
TAAGATCTCAGTCTCGATTAGTGCTAG,3.28
GACGGACTGGCTATCGGGACGTGCTAG,-0.679
GACGGTTTCGGACTGGTGACGTGCTAG,5.61
TTAGGTTTCCTATTCCTTTAGTGCTAG,1.53
GACGGTTTCGGGTTTCGGGAAGTGCTA,9.75
TCACTTCTCAATTAAAAACTGTGCTAG,1.59
